Measurements pooled from the literature.
Protocols differ between the studies behind these lines. “And” joins repeats or separate records; there may be more than shown. Numbers after ± are the reported error.
SRC SH3-SH2-kinase domain: Proto-oncogene tyrosine-protein kinase Src, SH3-SH2-kinase domain (SRC, Gallus gallus, UniProt P00523)
INPP5D Ptase-C2 domains: Phosphatidylinositol 3,4,5-trisphosphate 5-phosphatase 1, Ptase-C2 domains (INPP5D, Homo sapiens, UniProt Q92835)
UniProt Q92835, sequence (whole entry, looked up): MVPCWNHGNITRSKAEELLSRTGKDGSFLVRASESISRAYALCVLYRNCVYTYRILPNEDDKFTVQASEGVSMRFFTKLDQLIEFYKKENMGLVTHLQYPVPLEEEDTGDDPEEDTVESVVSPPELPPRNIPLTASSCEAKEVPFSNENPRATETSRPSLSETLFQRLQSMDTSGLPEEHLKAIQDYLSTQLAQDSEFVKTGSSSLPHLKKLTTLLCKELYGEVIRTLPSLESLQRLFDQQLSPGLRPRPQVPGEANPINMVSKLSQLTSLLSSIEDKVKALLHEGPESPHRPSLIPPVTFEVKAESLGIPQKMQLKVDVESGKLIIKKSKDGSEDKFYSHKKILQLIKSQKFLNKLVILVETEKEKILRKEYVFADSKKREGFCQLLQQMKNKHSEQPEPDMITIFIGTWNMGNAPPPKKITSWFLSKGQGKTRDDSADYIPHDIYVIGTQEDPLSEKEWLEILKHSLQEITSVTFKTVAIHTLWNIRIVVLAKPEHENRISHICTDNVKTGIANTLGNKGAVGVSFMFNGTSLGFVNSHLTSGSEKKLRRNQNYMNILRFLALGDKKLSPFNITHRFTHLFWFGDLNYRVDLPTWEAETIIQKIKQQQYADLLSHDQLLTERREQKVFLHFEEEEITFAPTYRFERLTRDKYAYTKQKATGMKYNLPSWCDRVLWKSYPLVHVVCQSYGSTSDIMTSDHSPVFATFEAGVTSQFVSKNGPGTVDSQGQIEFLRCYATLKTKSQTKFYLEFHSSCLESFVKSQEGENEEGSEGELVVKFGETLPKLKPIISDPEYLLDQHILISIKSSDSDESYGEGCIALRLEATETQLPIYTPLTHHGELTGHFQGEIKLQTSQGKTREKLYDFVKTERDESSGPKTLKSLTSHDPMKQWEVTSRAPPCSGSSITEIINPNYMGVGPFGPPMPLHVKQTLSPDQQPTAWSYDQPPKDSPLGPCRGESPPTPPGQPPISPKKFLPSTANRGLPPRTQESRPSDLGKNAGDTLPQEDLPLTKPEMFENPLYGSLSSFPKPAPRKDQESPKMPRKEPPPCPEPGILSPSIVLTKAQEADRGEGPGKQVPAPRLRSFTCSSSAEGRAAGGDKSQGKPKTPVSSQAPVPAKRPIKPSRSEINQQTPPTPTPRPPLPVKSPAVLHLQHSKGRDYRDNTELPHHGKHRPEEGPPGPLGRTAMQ
Genome polyprotein NS3 helicase domain: Genome polyprotein, NS3 helicase domain (Hepatitis C virus genotype 1b, UniProt Q9WMX2)
DNA topoisomerase IB: DNA topoisomerase IB (Leishmania donovani, UniProt A0A3Q8IHS4+Q8WQM6)
RAD52 with RPA and ssDNA: DNA repair protein RAD52 homolog, with RPA and ssDNA (RAD52, Homo sapiens, UniProt P43351)
UniProt P43351, sequence (whole entry, looked up): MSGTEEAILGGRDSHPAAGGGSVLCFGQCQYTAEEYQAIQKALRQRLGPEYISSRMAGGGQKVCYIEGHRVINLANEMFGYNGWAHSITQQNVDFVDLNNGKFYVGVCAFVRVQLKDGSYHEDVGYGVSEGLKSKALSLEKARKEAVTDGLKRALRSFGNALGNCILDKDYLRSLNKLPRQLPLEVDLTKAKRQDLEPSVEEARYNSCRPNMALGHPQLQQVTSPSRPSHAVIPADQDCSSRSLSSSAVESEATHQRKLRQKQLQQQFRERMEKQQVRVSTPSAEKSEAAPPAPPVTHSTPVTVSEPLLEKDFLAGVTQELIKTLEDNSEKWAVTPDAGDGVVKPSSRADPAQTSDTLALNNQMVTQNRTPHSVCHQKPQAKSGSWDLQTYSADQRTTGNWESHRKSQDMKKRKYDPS
FOLH1: Glutamate carboxypeptidase 2 (FOLH1, Homo sapiens, UniProt Q04609)
UniProt P32929, sequence (whole entry, looked up): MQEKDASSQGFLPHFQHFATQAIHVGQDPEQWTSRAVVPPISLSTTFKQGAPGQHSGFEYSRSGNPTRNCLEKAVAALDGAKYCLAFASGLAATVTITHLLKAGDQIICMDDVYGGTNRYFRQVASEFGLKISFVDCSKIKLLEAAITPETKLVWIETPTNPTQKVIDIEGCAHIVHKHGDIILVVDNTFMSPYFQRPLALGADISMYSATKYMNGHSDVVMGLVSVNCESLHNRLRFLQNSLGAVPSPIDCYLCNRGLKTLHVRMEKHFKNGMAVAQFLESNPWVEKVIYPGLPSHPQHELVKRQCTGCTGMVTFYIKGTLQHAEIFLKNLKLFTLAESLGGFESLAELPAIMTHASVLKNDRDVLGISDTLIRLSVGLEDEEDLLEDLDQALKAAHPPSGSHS

`COc1cc(N2CCN(C)CC2)ccc1Nc1ncc2c(n1)N(C)c1ccc(C)cc1C(=O)N2CC(F)(F)F` gave an IC50 of greater than 10 µM (DCLK1 (Homo sapiens, UniProt O15075); target engagement, NanoBRET; HCT-116).
With `NS(=O)(=O)c1ccc(N2N=C(C(F)(F)F)C(O)C2c2ccc(F)cc2F)cc1` (stereo not shown) the IC50 was greater than 100 µM (Cyclooxygenase-2 (Canis lupus familiaris, UniProt Q8SPQ9); PGE2 formation, inhibitor; dog whole blood; 24 h, 37 °C, together with: LPS).
With `Cc1ccc(C[C@@H]2NC(=O)[C@H](Cc3ccccc3)NC(=O)[C@H](CC3CCCCC3)NC(=O)/C=C/C(=O)N[C@H](C(N)=O)CCCNC2=O)cc1` the IC50 was 0.27 ± 0.04 µM (SRC SH3-SH2-kinase domain; enzyme activity, inhibitor, Z'-LYTE FRET; Src residues 83-533, together with: 50 µM ATP).
The IC50 of `O=C(O[C@@H]1Cc2c(O)cc(O)cc2O[C@@H]1c1cc(O)c(O)c(O)c1)c1cc(O)c(O)c(O)c1` is reported as 40 to 200 µM (DNMT1 (Homo sapiens, UniProt P26358); enzyme activity, inhibitor).
With `Cc1nc2ccc(Br)cc2c(=O)n1N` the IC50 was 16.1 ± 0.85 µM (PLA2G5 (Homo sapiens, UniProt P39877); enzyme activity, inhibitor, colorimetric).
`CC(C)(C)C(=O)Cn1nnc(-c2ccc(C(F)(F)F)cc2)n1` has an IC50 of greater than 100 µM (Trypanothione synthetase (Trypanosoma brucei, UniProt Q586P2); enzyme activity, inhibitor).
With `CC[C@H]1CC[C@H]2[C@@H]3C[C@@H](O)[C@@]4(O)C[C@H](N)CC[C@]4(C)[C@H]3CC[C@]12C` the IC50 was 122 µM (INPP5D Ptase-C2 domains; enzyme activity, inhibitor).
`Cc1ccccc1-c1cc(N2CCCCC2)ccc1N(C)C(=O)C(C)(C)c1cc(C(F)(F)F)cc(C(F)(F)F)c1` gave an IC50 of 0.603 µM (TACR1 (Homo sapiens, UniProt P25103); nuclear ERK activity, antagonist, FRET biosensor; HEK293T; 30 to 90 min preincubation, together with: substance P 10 nM).
`CCCCCCCCCCCCCC(=O)OCC(O)COC1OC(CS(=O)(=O)O)C(O)C(O)C1O` (stereo not shown) has an IC50 of 11 µM and 9.1 µM (DNA polymerase (POLA1, Bos taurus, UniProt A0AAA9TD94); enzyme activity, inhibitor, radiometric).
The IC50 of `O=S(=O)(Nc1cscn1)c1c(F)cc(NCc2c(F)ccc(F)c2CN2CCC2)cc1F` is reported as 0.0376 µM (SCN8A (Homo sapiens, UniProt Q9UQD0); tonic ion current block, inhibitor, patch clamp; held at V0.5, first pulse).
`N=C(N)NCCS(=O)(=O)O` has an IC50 of 16.8 µM (SLC6A6 (Homo sapiens, UniProt P31641); transporter uptake, inhibitor, radiometric).
With `NOCC(=O)O` the IC50 was 1.09 µM and 1.1 µM (CTH (Homo sapiens, UniProt P32929); inhibitor, methylene blue; 60 min, 37 °C, together with: L-cysteine 1 mM).
`C#Cc1cccc(Nc2ncnc3cc(OC)c(OCCCN4CCOCC4)cc23)c1` gave an IC50 of greater than 10 µM (IGF1R (Homo sapiens, UniProt P08069); kinase activity, inhibitor; together with: ATP 80.8 µM).
`N=C(N)NCCC[C@@H]1NC(=O)[C@H](Cc2c[nH]c3ccccc23)NC(=O)[C@H](CCCNC(=N)N)NC(=O)[C@H](Cc2c[nH]c3ccccc23)NC(=O)[C@H](CCCNC(=N)N)NC(=O)[C@H](Cc2c[nH]c3ccccc23)NC(=O)[C@H](CCCNC(=N)N)NC(=O)[C@H](Cc2c[nH]c3ccccc23)NC(=O)[C@H](CCCNC(=N)N)NC(=O)[C@H](Cc2c[nH]c3ccccc23)NC(=O)[C@H](CCCNC(=N)N)NC(=O)[C@H](Cc2c[nH]c3ccccc23)NC(=O)[C@H](CCCNC(=N)N)NC(=O)[C@H](Cc2c[nH]c3ccccc23)NC(=O)[C@H](CCCNC(=N)N)NC(=O)[C@H](Cc2c[nH]c3ccccc23)NC1=O` has an IC50 of 0.41 µM (ABL1 (Homo sapiens, UniProt P00519); enzyme activity, inhibitor, radiometric).
`COCCSc1nc(-c2cccs2)cc(-c2ccc(Cl)cc2)c1C#N` has an IC50 of greater than 100 µM (KAT2A (Homo sapiens, UniProt Q92830); enzyme activity, inhibitor, radiometric).
For `Cc1ccc2nc(-c3ccc4nc(-c5ccc6nc(-c7ccc8nc(-c9ccc(N)cc9)sc8c7)sc6c5)sc4c3)sc2c1S(=O)(=O)O`, the IC50 was roughly 1 µM (Genome polyprotein NS3 helicase domain; DNA unwinding, inhibitor, molecular beacon helicase; together with: DNA substrate).
The IC50 of `Cc1ccc2c(=O)n(-c3ccc([18F])cc3)c(CCN3C(=O)c4cccc(OC(C)C)c4C3=O)nc2c1` is reported as 0.0021 µM (PDE10A (Homo sapiens, UniProt Q9Y233); cell-free assay, inhibitor, FP).
With `C=C(C)C(=O)Nc1ccc(-c2c(-c3ccc(Oc4cccc(C)n4)cc3)c3c(N)ncnc3n2C)cc1` the IC50 was 0.18 µM (FGFR3 (Homo sapiens, UniProt P22607); Caliper mobility shift; 30 min preincubation, together with: 100 µM ATP).
For `NC(=O)c1ccc(C[C@@H]2NC(=O)[C@H](Cc3ccccc3)NC(=O)[C@H](CC3CCCCC3)NC(=O)/C=C/C(=O)N[C@H](C(N)=O)CCCNC2=O)cc1`, the IC50 was 0.036 ± 0.004 µM (SRC SH3-SH2-kinase domain; enzyme activity, inhibitor, Z'-LYTE FRET; Src residues 83-533, together with: 50 µM ATP).
`CCCCn1c(=S)[nH]c2cc3ccccc3cc2c1=O` has an IC50 of 9.35 µM (Genome polyprotein, protease (Hepatitis C virus genotype 1b, UniProt O92972); enzyme activity, inhibitor, FRET).
`Cc1cc(NC(=O)C2CCN(C(=O)Cc3c(C)[nH]c4ccccc34)CC2)no1` has an IC50 of 26.4 µM and 26 µM (Trypanothione synthetase (Trypanosoma brucei brucei, UniProt Q586P2); enzyme activity, BIOMOL Green phosphate release; 1 h preincubation).
`NC(=O)[C@@H]1CCCNC(=O)[C@H](Cc2ccc([N+](=O)[O-])cc2)NC(=O)[C@H](CC2CCCCC2)NC(=O)[C@H](CC2CC2)NC(=O)/C=C/C(=O)N1` gave an IC50 of 2 ± 0.1 µM (SRC SH3-SH2-kinase domain; enzyme activity, inhibitor, Z'-LYTE FRET; Src residues 83-533, together with: 50 µM ATP).
With `CCNC1=C(Cl)C(=O)c2cc3c(cc2C1=O)CCCC3(C)C` the IC50 was greater than 100 µM (DNA topoisomerase IB; DNA relaxation activity, inhibitor; together with: supercoiled plasmid DNA).
The IC50 of `Cc1noc(C)c1N(C)S(=O)(=O)c1ccc(C(=O)O)cc1Br` is reported as 96.9 ± 10 µM (RAD52 with RPA and ssDNA; inhibitor, FRET).
`CC1=CC(C)=[N+]2C1=C(CCCC(=O)NCCCCCC(=O)NCCCCCC(=O)NCCCC[C@H](NC(=O)N[C@@H](CCC(=O)O)C(=O)O)C(=O)O)c1c(C)cc(C)n1[B-]2(F)F` gave an IC50 of 0.0964 µM (FOLH1; ligand displacement in cells, radioligand).
The IC50 of `Cc1oc(-c2ccccc2Cl)nc1Cn1cccc1C1=N[C@@H](c2ccccc2)CO1` is reported as 8.99 µM (INPP5D Ptase-C2 domains; enzyme activity, inhibitor).
`O=C(Cn1nc(C(F)(F)F)c2c1CCCC2)NCc1cccs1` has an IC50 of 3.9 µM (Trypanothione synthetase (Trypanosoma brucei, UniProt Q586P2); enzyme activity, inhibitor).
With `NC(=O)[C@@H]1CCNC(=O)[C@H](CCCNC(=O)c2cnccn2)NC(=O)[C@H](CC2CCCCC2)NC(=O)[C@H](C/C=C/c2ccccc2)NC(=O)/C=C\C(=O)N1` the IC50 was greater than 100 µM (HCK (Homo sapiens, UniProt P08631); enzyme activity, inhibitor, absorbance).
`COc1ccc2nc3cc(Cl)ccc3c(NCCCCc3c(N)nc(N)nc3N)c2c1` has an IC50 of 40 ± 11 µM (Muscleblind-like protein 1, with (CCUG)6 RNA (Homo sapiens, UniProt Q9NR56); MBNL1-RNA binding, gel mobility shift; 100 nM tRNA, together with: (CCUG)6 RNA, 350 nM MBNL1).
`Nc1nc(Cl)nc2c1ncn2Cc1cc(OCC(F)F)cc(OC(F)F)c1` gave an IC50 of 0.011 µM (PDE8A (Homo sapiens, UniProt O60658); enzyme activity, inhibitor, radiometric).
With `CC(C)(C)n1nc(-c2ccc(Cl)cc2)c2c(N)ncnc21` the IC50 was 0.074 µM (Proto-oncogene tyrosine-protein kinase Src, SH2 (SRC, Gallus gallus, UniProt P00523, G530I/P529E/Q528E); cell-free assay, inhibitor).
`Cc1cc(-c2cc(Cl)ccc2OCCn2c(C)nc3cc(C(F)(F)F)cc(C#N)c3c2=O)c2scc(C(=O)NS(C)(=O)=O)c2n1` has an IC50 of 0.073 µM (EIF4E (Homo sapiens, UniProt P06730); human cells; 6 h treatment, read at 24 h).
`CCCCCCCCCOc1c(CCCC(=O)O)cc(-c2ccc(C(=O)O)cc2)cc1CCCC(=O)O` gave an IC50 of roughly 125 µM (PTPN6 (Homo sapiens, UniProt P29350); enzyme activity, inhibitor, fluorescence).
`Cc1ccc2nc(-c3ccc4nc(-c5ccc6nc(-c7ccc(N)cc7)sc6c5)sc4c3)sc2c1S(=O)(=O)O` has an IC50 of 0.9 ± 0.1 µM (Genome polyprotein NS3 helicase domain; helicase activity, inhibitor, MBHA).
For `CC(=O)Oc1ccc(OC(C)=O)c2c1CC1=C(C2)C(C)(C)CCC1`, the IC50 was greater than 100 µM (DNA topoisomerase IB; DNA relaxation activity, inhibitor; together with: supercoiled plasmid DNA).
For `CC1=CC(C)=[N+]2C1=C(CCCC(=O)NCCCCCC(=O)NCCCC[C@H](NC(=O)N[C@@H](CCC(=O)O)C(=O)O)C(=O)O)c1c(C)cc(C)n1[B-]2(F)F`, the IC50 was 0.0215 µM (FOLH1; ligand displacement in cells, radioligand).
The IC50 of `CNC(=O)c1ccc(Oc2nc3c(c(=O)n(C)c(=O)n3C)n2CCC(C)C)cc1` is reported as greater than 57 µM (HPGD (Homo sapiens, UniProt P15428)).
The IC50 of `C[C@@H](Oc1cncc(-c2cnc(N)nc2)c1)c1c(Cl)ccc(F)c1Cl` is reported as 79.4 µM (INPP5D Ptase-C2 domains; enzyme activity, inhibitor).
`CC(=N)N(C)c1ccc(C(=O)Nc2ccc(F)cc2C(=O)Nc2ccc(Cl)cn2)cc1` has an IC50 of 0.0005 µM (F10 (Homo sapiens, UniProt P00742); enzyme activity, inhibitor, absorbance).
For `CCc1cccc(Nc2c(C(N)=O)cnc3c(C)cc(-c4ccc5cnn(C)c5c4)cc23)c1`, the IC50 was 12.1 ± 3.2 µM (cAMP phosphodiesterase B2 (Trypanosoma brucei, UniProt Q38F42); inhibitor).
`Cc1ccc([N+](=O)[O-])cc1S(=O)(=O)N(C)/N=C/c1cnc2ccc(Br)cn12` has an IC50 of greater than 10 µM (MAPK11 (Homo sapiens, UniProt Q15759); enzyme activity, inhibitor, ADP detection).
The IC50 of `CCN1CCC(N(C)C(=O)Cc2ccc(O)cc2Cl)C(C)C1` (stereo not shown) is reported as 54.9 ± 3.1 µM (RAD52 with RPA and ssDNA; inhibitor, FRET).
`CN(C)C/C=C/C(=O)Nc1ccc2nc(NCCCCCN(C)C)nc(NCCCCCCN(C)C)c2c1` gave an IC50 of greater than 100 µM (Histone lysine demethylase PHF8, PHD (PHF8, Homo sapiens, UniProt Q9UPP1); enzyme activity, inhibitor, TR-FRET).

Repeated from above:
`Cc1ccc2nc(-c3ccc4nc(-c5ccc6nc(-c7ccc(N)cc7)sc6c5)sc4c3)sc2c1S(=O)(=O)O` has an IC50 of 0.9 ± 0.1 µM (Genome polyprotein NS3 helicase domain; helicase activity, inhibitor, MBHA).
For `CC(=O)Oc1ccc(OC(C)=O)c2c1CC1=C(C2)C(C)(C)CCC1`, the IC50 was greater than 100 µM (DNA topoisomerase IB; DNA relaxation activity, inhibitor; together with: supercoiled plasmid DNA).
